Experimental data of several laboratories.
Each line is one published result; not all experiments were run side by side. ± marks the error that the study gave.

Compound	test	test system	conditions	how to read	endpoint	result
CC[C@H](C)[C@H](NC(=O)CNC(=O)[C@H](CCSC)NC(=O)[C@H](CCC(N)=O)NC(=O)[C@H](C)NC(=O)[C@H](CCC(N)=O)NC(=O)[C@@H](NC(=O)[C@H](CC(C)C)NC(=O)[C@H](C)NC(=O)[C@H](CO)NC(=O)[C@H](CCSC)NC(=O)[C@H](CCC(=O)O)NC(=O)[C@H](CC(C)C)NC(=O)[C@H](Cc1ccc(O)cc1)NC(=O)[C@H](CO)NC(=O)[C@H](CCC(=O)O)NC(=O)[C@H](CCC(N)=O)NC(=O)[C@H](CCCNC(=N)N)NC(=O)[C@H](CCCCN)NC(=O)[C@H](CC(=O)O)NC(=O)[C@H](CC(C)C)NC(=O)[C@H](CC(N)=O)NC(=O)[C@H](Cc1ccccc1)NC(=O)[C@H](CCC(=O)O)NC(=O)[C@H](CCCCN)NC(=O)[C@@H](NC(=O)[C@H](CC(C)C)NC(=O)[C@H](CCC(=O)O)NC(=O)[C@H](CCC(=O)O)NC(=O)[C@@H](NC(=O)[C@@H](NC(=O)[C@H](CCCNC(=N)N)NC(=O)[C@H](CCCCN)NC(=O)[C@H](C)NC(=O)[C@H](Cc1ccccc1)NC(=O)[C@H](CCC(=O)O)NC(=O)[C@H](CCC(=O)O)NC(=O)[C@H](CC(C)C)NC(=O)[C@@H](N)CO)C(C)C)C(C)C)C(C)C)[C@@H](C)CC)C(=O)N[C@@H](CO)C(=O)N[C@@H](CCC(=O)O)C(=O)N[C@@H](CCCNC(=N)N)C(=O)N[C@H](C(=O)N[C@H](C(=O)N[C@@H](CCC(=O)O)C(=O)N[C@H](C(=O)N[C@H](C(=O)N[C@@H](CC(C)C)C(=O)N[C@@H](CCCNC(=N)N)C(=O)N[C@@H](Cc1c[nH]cn1)C(=O)N[C@@H](C)C(=O)N[C@@H](C)C(=O)N[C@@H](CCC(N)=O)C(=O)N[C@H](C(=O)N[C@@H](CC(C)C)C(=O)N[C@@H](CCCCN)C(=O)O)[C@@H](C)O)C(C)C)[C@@H](C)CC)[C@@H](C)CC)[C@@H](C)CC		male mouse, plasma	intravenous, 1 mg/kg		C0	12200 ng/mL
N=C(N)NCCC[C@H](NC(=O)[C@H](CCCNC(=N)N)NC(=O)[C@H](CCCNC(=N)N)NC(=O)[C@H](CCC(N)=O)NC(=O)[C@H](CCCNC(=N)N)NC(=O)[C@H](CCCNC(=N)N)NC(=O)[C@H](CCCCN)NC(=O)[C@H](CCCCN)NC(=O)[C@H](CCCNC(=N)N)NC(=O)CNC(=O)[C@H](Cc1ccc(O)cc1)NC(=O)[C@H](Cc1ccccc1)NC(=O)[C@H](Cc1ccccc1)NC(=O)[C@H](Cc1ccccc1)NC(=O)OCC1c2ccccc2-c2ccccc21)C(=O)O		C57BL/6 mice	intraperitoneal, 20 mg/kg, 6 h	direction not given	health score	5
CC[C@H](C)[C@H](NC(=O)[C@H](C)NC(=O)CNC(=O)[C@H](CCCCN)NC(=O)[C@@H](NC(=O)[C@H](CC(C)C)NC(=O)[C@H](C)NC(=O)CNC(=O)[C@H](CC(C)C)NC(=O)[C@@H](N)Cc1ccccc1)[C@@H](C)CC)C(=O)N[C@@H](Cc1c[nH]cn1)C(=O)NCC(=O)NCC(=O)N[C@@H](CCCNC(=N)N)C(=O)N[C@@H](Cc1ccccc1)C(=O)N[C@H](C(=O)N[C@@H](Cc1c[nH]cn1)C(=O)NCC(=O)N[C@@H](CCSC)C(=O)N[C@H](C(=O)N[C@@H](CCC(N)=O)C(=O)N[C@@H](CC(N)=O)C(=O)N[C@@H](Cc1c[nH]cn1)C(=O)N[C@@H](Cc1c[nH]cn1)C(N)=O)[C@@H](C)CC)[C@@H](C)CC		zebrafish embryos 4 hpf, E3 medium	24 h		chronic toxic concentration	1 µM
COc1ccc(CNc2ccc3c(c2)S(=O)(=O)C=C3)cc1	flow cytometry	male C57BL/6 mice, spleen	i.p., 20 mg/kg, 8 days	baseline: CD45+ cells	Gr-1+ CD11b+ cells	1.2%
O=C1NC2(CC2)COc2ncc(F)cc2[C@H]2COCCN2c2ccn3ncc1c3n2		Sprague-Dawley rats, male, blood	oral, 20 mg/kg/day, end of recovery, 4-week subacute toxicity		APTT	16.5 ± 1.4 s
CSCC[C@H](N)C(=O)N[C@@H](C)C(=O)N[C@@H](CCCNC(=N)N)C(=O)N[C@@H](CCCNC(=N)N)C(=O)N[C@@H](CC(=O)O)C(=O)N[C@@H](CCCCN)C(=O)N[C@H](C(=O)N[C@@H](CC(=O)O)C(=O)N[C@@H](Cc1ccccc1)C(=O)N[C@@H](C)C(=O)N[C@@H](CCCNC(=N)N)C(=O)N[C@@H](CCCNC(=N)N)C(=O)N[C@@H](CCCNC(=N)N)C(=O)N[C@@H](CCCNC(=N)N)C(=O)NCCCCCC(=O)NCCCCC(NC(=O)CCCCCNC(=O)[C@H](CCCNC(=N)N)NC(=O)[C@H](CCCNC(=N)N)NC(=O)[C@H](CCCNC(=N)N)NC(=O)[C@H](CCCNC(=N)N)NC(=O)[C@H](C)NC(=O)[C@H](Cc1ccccc1)NC(=O)[C@H](CC(=O)O)NC(=O)[C@@H](NC(=O)[C@H](CCCCN)NC(=O)[C@H](CC(=O)O)NC(=O)[C@H](CCCNC(=N)N)NC(=O)[C@H](CCCNC(=N)N)NC(=O)[C@H](C)NC(=O)[C@@H](N)CCSC)[C@@H](C)O)C(=O)NCCCCC(NC(=O)C(CCCCNC(=O)CCCCCNC(=O)[C@H](CCCNC(=N)N)NC(=O)[C@H](CCCNC(=N)N)NC(=O)[C@H](CCCNC(=N)N)NC(=O)[C@H](CCCNC(=N)N)NC(=O)[C@H](C)NC(=O)[C@H](Cc1ccccc1)NC(=O)[C@H](CC(=O)O)NC(=O)[C@@H](NC(=O)[C@H](CCCCN)NC(=O)[C@H](CC(=O)O)NC(=O)[C@H](CCCNC(=N)N)NC(=O)[C@H](CCCNC(=N)N)NC(=O)[C@H](C)NC(=O)[C@@H](N)CCSC)[C@@H](C)O)NC(=O)CCCCCNC(=O)[C@H](CCCNC(=N)N)NC(=O)[C@H](CCCNC(=N)N)NC(=O)[C@H](CCCNC(=N)N)NC(=O)[C@H](CCCNC(=N)N)NC(=O)[C@H](C)NC(=O)[C@H](Cc1ccccc1)NC(=O)[C@H](CC(=O)O)NC(=O)[C@@H](NC(=O)[C@H](CCCCN)NC(=O)[C@H](CC(=O)O)NC(=O)[C@H](CCCNC(=N)N)NC(=O)[C@H](CCCNC(=N)N)NC(=O)[C@H](C)NC(=O)[C@@H](N)CCSC)[C@@H](C)O)C(N)=O)[C@@H](C)O (stereo partly drawn)		C57BL/6 mouse female, femur	dose not given, 3 h	baseline: total	mean tissue distribution	1.35%
CC(C)[C@@H]1NC(=O)CNC(=O)[C@H](CC(N)=O)NC(=O)[C@H](CCCNC(=N)N)NC(=O)[C@H](Cc2ccc(O)cc2)NC(=O)[C@H](C(C)C)NC(=O)[C@@H](NC(=O)[C@@H](NC(=O)[C@H](CC(N)=O)NC(=O)[C@H](Cc2c[nH]c3ccccc23)NC(=O)[C@H](C)NC(=O)[C@H](Cc2ccccc2)NC(=O)CNC(=O)[C@H](CCCCN)NC(=O)[C@H](Cc2ccccc2)NC(=O)[C@H](Cc2ccccc2)NC(=O)[C@H](CCCCN)NC(=O)OCC2c3ccccc3-c3ccccc32)C(C)C)CSSC[C@@H](C(=O)N[C@@H](Cc2c[nH]cn2)C(=O)N[C@@H](CCCNC(=N)N)C(=O)N[C@@H](CCCNC(=N)N)C(=O)N[C@@H](C)C(=O)N[C@@H](CC(N)=O)C(N)=O)NC(=O)[C@H](C(C)C)NC(=O)[C@H](CCCNC(=N)N)NC1=O		ICR mouse	ip, 5 mg/kg	direction not given	body posture score	0
CC[C@H](C)[C@H](NC(=O)[C@H](Cc1ccc(O)cc1)NC(=O)[C@@H](NC(=O)[C@H](CCCNC(=N)N)NC(=O)[C@@H](N)CC(=O)O)C(C)C)C(=O)N[C@@H](Cc1c[nH]cn1)C(=O)N1CCC[C@H]1C(=O)O		Beagle dog, plasma	sc, 10 mg/kg/day, day 0, median		AUC	908 ng·h/mL
O=C(CN1C(=O)C2(CCN(C(=O)c3ccc4[nH]ncc4n3)CC2)c2c(Br)cccc21)NCC(F)(F)F		C57BL/6 mice, male	oral, 10 mg/kg		oral bioavailability	23 ± 7%
CC(C)C[C@@H](NC(=O)[C@@H](CCCNC(=N)N)NC(=O)[C@@H](Cc1c[nH]cn1)NC(=O)[C@@H](Cc1c[nH]c2ccccc12)NC(=O)[C@@H](Cc1c[nH]cn1)NC(=O)[C@@H](Cc1ccccc1)NC(=O)[C@H](NC(=O)[C@@H](Cc1ccc(O)cc1)NC(=O)CNC(=O)CNC(=O)CCOCCOCCOCCNC(=O)CN1CCN(CC(=O)O)CCN(CC(=O)O)CC1)[C@H](C)O)C(=O)N[C@H](CC(N)=O)C(=O)N1CCC[C@@H]1C(=O)O [gallium-68 labelled]		male C57BL/6 mice	intravenous, 1.85 MBq, 60 min, together with: antibody blocking	baseline: tumour over lung	tumour-to-tissue ratio	4.25 ± 0.92
CCCC[C@H]1C(=O)N(C)[C@@H](CCCC)C(=O)N[C@@H](CCCNC(=O)CN2CCN(CC(=O)O)CCN(CC(=O)O)CCN(CC(=O)O)CC2)C(=O)N[C@H](C(=O)NCC(N)=O)CSCC(=O)N[C@@H](Cc2ccc(O)cc2)C(=O)N(C)[C@@H](C)C(=O)N[C@@H](CC(N)=O)C(=O)N2CCC[C@H]2C(=O)N[C@@H](Cc2c[nH]cn2)C(=O)N[C@@H](CC(C)C)C(=O)N(C)CC(=O)N[C@@H](Cc2c[nH]c3ccccc23)C(=O)N[C@@H](CO)C(=O)N[C@@H](Cc2c[nH]c3ccccc23)C(=O)N1C [gallium-68 labelled]		NOD/SCID mice, CHO-hPD-L1 xenograft, bone	60 min, together with: blocking agent 50 µg co-injected		tissue uptake	4.07 ± 0.42 %ID/g
CC(C)=CCC/C(C)=C\CCn1cc(CC(P(=O)(O)O)P(=O)(O)O)nn1		mouse CD-1, bile	intravenous, 0.3 mg/kg, 2 h		concentration	2460 ± 1260 ng/mL

A few entries again:
Compound	test	test system	conditions	how to read	endpoint	result
CC[C@H](C)[C@H](NC(=O)[C@H](Cc1ccc(O)cc1)NC(=O)[C@@H](NC(=O)[C@H](CCCNC(=N)N)NC(=O)[C@@H](N)CC(=O)O)C(C)C)C(=O)N[C@@H](Cc1c[nH]cn1)C(=O)N1CCC[C@H]1C(=O)O		Beagle dog, plasma	sc, 10 mg/kg/day, day 0, median		AUC	908 ng·h/mL
O=C(CN1C(=O)C2(CCN(C(=O)c3ccc4[nH]ncc4n3)CC2)c2c(Br)cccc21)NCC(F)(F)F		C57BL/6 mice, male	oral, 10 mg/kg		oral bioavailability	23 ± 7%
